Measurements gathered from unrelated publications.
Lines come from different studies, so protocols differ. ± gives the spread as reported.
KCNA3: Potassium voltage-gated channel subfamily A member 3 (KCNA3, Homo sapiens, UniProt P22001)
UniProt P22001, sequence (whole entry, looked up): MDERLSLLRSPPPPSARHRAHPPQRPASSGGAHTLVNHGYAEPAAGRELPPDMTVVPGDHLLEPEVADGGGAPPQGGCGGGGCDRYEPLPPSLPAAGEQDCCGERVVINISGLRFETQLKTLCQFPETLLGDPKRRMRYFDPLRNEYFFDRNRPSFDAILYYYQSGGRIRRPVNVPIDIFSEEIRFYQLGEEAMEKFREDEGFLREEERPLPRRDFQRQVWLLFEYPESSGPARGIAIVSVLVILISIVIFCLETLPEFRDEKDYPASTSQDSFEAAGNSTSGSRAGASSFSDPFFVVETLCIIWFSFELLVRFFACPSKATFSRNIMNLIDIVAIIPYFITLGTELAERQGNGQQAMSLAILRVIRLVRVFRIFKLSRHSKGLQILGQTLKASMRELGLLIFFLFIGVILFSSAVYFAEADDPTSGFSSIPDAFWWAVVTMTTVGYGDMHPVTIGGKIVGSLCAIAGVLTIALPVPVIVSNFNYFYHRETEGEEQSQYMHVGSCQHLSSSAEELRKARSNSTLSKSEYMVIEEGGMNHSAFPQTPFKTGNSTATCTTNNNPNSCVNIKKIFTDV
gag-pol integrase: Gag-Pol polyprotein, integrase (gag-pol, Human immunodeficiency virus type 1 group M subtype B, UniProt P04585)
F fusion protein: Fusion glycoprotein F0, fusion protein (F, Parainfluenza virus 5, UniProt P04849)
UniProt P04849, sequence (whole entry, looked up): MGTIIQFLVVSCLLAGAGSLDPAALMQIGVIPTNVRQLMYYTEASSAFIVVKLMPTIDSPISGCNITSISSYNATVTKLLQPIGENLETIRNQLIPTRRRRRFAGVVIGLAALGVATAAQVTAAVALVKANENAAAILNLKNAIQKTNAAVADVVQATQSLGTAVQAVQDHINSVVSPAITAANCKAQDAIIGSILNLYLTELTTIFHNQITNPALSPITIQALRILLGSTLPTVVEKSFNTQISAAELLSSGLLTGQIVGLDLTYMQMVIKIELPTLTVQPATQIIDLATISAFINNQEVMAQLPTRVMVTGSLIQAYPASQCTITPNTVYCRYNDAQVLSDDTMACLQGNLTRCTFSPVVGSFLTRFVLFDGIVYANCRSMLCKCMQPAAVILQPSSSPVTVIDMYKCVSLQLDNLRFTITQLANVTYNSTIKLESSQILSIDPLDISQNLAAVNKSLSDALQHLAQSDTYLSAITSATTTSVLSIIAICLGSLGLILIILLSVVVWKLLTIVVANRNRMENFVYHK
UniProt Q9P0X4, sequence (whole entry, looked up): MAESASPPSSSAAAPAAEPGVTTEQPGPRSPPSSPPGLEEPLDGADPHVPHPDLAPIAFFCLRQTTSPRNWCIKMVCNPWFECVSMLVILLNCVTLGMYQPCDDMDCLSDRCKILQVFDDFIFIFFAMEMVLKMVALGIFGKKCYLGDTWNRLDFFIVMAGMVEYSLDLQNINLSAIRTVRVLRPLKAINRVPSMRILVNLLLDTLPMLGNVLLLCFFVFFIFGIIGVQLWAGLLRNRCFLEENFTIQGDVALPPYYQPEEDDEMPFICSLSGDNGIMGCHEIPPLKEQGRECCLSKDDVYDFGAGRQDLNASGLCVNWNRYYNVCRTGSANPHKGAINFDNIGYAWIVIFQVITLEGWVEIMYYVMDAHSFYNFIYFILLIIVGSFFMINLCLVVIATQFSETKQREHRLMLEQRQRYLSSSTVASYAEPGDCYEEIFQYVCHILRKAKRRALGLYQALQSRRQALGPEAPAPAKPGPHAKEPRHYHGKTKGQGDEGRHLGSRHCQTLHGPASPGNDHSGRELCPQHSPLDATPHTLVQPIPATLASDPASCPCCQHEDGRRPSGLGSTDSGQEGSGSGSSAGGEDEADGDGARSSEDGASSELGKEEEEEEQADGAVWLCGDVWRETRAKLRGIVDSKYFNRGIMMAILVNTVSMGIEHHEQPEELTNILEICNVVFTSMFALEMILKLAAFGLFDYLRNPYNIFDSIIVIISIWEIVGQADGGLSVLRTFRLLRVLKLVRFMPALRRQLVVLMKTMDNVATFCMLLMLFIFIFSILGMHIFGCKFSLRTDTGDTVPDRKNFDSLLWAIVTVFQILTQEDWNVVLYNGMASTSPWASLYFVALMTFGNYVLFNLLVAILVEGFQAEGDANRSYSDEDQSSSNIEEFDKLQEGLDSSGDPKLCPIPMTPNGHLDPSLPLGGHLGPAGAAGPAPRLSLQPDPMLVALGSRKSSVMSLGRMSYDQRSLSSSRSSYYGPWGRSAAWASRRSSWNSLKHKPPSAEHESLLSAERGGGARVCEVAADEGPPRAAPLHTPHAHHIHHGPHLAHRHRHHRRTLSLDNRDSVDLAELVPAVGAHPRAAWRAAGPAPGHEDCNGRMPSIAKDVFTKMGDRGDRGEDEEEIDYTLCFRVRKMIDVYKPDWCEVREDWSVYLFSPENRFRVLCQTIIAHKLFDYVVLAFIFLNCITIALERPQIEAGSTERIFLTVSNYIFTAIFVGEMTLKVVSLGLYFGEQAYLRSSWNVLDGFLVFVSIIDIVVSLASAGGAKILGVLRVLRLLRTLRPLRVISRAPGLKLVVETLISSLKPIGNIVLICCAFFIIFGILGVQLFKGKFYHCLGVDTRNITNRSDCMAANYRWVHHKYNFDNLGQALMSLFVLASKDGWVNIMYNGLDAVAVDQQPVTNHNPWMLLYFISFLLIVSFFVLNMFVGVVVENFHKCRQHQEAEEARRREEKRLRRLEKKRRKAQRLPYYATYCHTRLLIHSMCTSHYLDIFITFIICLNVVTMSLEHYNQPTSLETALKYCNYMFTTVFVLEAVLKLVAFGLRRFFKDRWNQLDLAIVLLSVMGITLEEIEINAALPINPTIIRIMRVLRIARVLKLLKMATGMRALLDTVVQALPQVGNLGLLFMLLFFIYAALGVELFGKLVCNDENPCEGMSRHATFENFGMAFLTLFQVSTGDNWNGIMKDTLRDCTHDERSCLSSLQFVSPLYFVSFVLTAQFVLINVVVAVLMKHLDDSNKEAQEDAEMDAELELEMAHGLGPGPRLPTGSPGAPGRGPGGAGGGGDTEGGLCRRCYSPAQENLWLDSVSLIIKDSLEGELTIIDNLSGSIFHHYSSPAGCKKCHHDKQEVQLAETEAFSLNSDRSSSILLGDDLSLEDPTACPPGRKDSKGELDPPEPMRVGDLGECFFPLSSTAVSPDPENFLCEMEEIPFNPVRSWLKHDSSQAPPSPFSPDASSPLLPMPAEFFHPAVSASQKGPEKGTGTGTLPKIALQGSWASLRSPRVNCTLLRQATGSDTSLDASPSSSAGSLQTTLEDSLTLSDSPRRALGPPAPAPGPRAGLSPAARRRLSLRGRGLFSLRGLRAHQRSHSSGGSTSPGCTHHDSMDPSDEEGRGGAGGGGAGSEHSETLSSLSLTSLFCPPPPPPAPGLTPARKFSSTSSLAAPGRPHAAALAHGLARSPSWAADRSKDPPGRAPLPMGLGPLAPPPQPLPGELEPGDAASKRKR
UniProt P32300, sequence (whole entry, looked up): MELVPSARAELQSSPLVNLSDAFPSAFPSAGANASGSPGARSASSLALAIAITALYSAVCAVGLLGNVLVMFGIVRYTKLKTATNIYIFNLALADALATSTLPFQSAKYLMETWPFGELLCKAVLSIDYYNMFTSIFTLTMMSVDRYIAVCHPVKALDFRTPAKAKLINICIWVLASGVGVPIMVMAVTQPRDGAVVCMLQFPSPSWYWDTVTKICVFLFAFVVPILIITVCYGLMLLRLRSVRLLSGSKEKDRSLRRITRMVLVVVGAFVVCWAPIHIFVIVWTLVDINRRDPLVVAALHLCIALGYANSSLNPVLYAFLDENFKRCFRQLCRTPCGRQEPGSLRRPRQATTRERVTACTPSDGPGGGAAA

CN(C)S(=O)(=O)c1cc(O)c(O)c2c1CN(Cc1ccc(F)c(Cl)c1)C2=O
IC50 (Gag-Pol polyprotein, integrase (gag-pol, Human immunodeficiency virus 1, UniProt P12497, Y1290R); enzyme activity, inhibitor): 200 ± 20 nM

CC[C@H](C)[C@@H]1NC(=O)[C@@H](NC(=O)[C@H](CO)NC(=O)[C@@H](N)CCCNC(=N)N)CSSC[C@@H](C(=O)O)NC(=O)[C@H]([C@@H](C)O)NC(=O)CNC(=O)[C@@H]2CSSC[C@@H]3NC(=O)[C@H](CCC(N)=O)NC(=O)[C@H](Cc4ccccc4)NC(=O)[C@H](C)NC(=O)[C@H]([C@@H](C)O)NC(=O)[C@H](CSSC[C@H](NC(=O)[C@H](Cc4ccccc4)NC(=O)[C@H](CO)NC(=O)[C@H](CC(C)C)NC(=O)[C@H](CCCNC(=N)N)NC(=O)[C@H](Cc4ccc(O)cc4)NC(=O)[C@H](CCCCN)NC(=O)[C@H](CCSC)NC(=O)[C@H](CO)NC(=O)[C@H](Cc4cnc[nH]4)NC(=O)[C@H](CCCCN)NC3=O)C(=O)N[C@@H](CCCNC(=N)N)C(=O)N[C@@H](CCCCN)C(=O)N[C@@H]([C@@H](C)O)C(=O)N2)NC(=O)[C@H](CCCNC(=N)N)NC(=O)[C@H](CO)NC(=O)[C@H](CCCCN)NC(=O)[C@@H]2CCCN2C(=O)[C@H]([C@@H](C)CC)NC(=O)[C@H]([C@@H](C)O)NC(=O)[C@H](CC(=O)O)NC1=O
IC50 (KCNA3; ion current, inhibitor, two-electrode voltage clamp; oocytes): 0.0574 nM

CC[C@@H](C)[C@H]1NC(=O)[C@H](NC(=O)[C@@H](CO)NC(=O)[C@H](N)CCCNC(=N)N)CSSC[C@H](C(=O)O)NC(=O)[C@@H]([C@H](C)O)NC(=O)CNC(=O)[C@H]2CSSC[C@H]3NC(=O)[C@@H](CCC(N)=O)NC(=O)[C@@H](Cc4ccccc4)NC(=O)[C@@H](C)NC(=O)[C@@H]([C@H](C)O)NC(=O)[C@@H](CSSC[C@@H](NC(=O)[C@@H](Cc4ccccc4)NC(=O)[C@@H](CO)NC(=O)[C@@H](CC(C)C)NC(=O)[C@@H](CCCNC(=N)N)NC(=O)[C@@H](Cc4ccc(O)cc4)NC(=O)[C@@H](CCCCN)NC(=O)[C@@H](CCSC)NC(=O)[C@@H](CO)NC(=O)[C@@H](Cc4c[nH]cn4)NC(=O)[C@@H](CCCCN)NC3=O)C(=O)N[C@H](CCCNC(=N)N)C(=O)N[C@H](CCCCN)C(=O)N[C@H]([C@H](C)O)C(=O)N2)NC(=O)[C@@H](CCCNC(=N)N)NC(=O)[C@@H](CO)NC(=O)[C@@H](CCCCN)NC(=O)[C@H]2CCCN2C(=O)[C@@H]([C@H](C)CC)NC(=O)[C@@H]([C@H](C)O)NC(=O)[C@@H](CC(=O)O)NC1=O
IC50 (KCNA3; ion current, blocker, cut-open oocyte voltage clamp; Xenopus laevis oocytes expressing hKv1.3; preparation possibly contaminated): 450 ± 110 nM

C=CCCC[C@H](NC(=O)[C@H](CCCNC(=N)N)NC(=O)[C@@H](NC(=O)[C@@H](NC(=O)[C@H](CCCC=C)NC(=O)[C@H](CCC(=O)O)NC(C)=O)[C@@H](C)CC)[C@@H](C)CC)C(=O)N[C@@H](CC(C)C)C(=O)N[C@@H](CCC(N)=O)C(=O)N[C@@H](CCC(N)=O)C(=O)N[C@@H](CC(C)C)C(=O)N[C@@H](CC(C)C)C(=O)N[C@@H](Cc1ccccc1)C(=O)N[C@H](C(=O)N[C@@H](Cc1c[nH]cn1)C(=O)N[C@@H](Cc1ccccc1)C(=O)N[C@@H](CCCNC(=N)N)C(=O)N[C@H](C(=O)NCC(N)=O)[C@@H](C)CC)[C@@H](C)CC
IC50 (gag-pol integrase; strand transfer, inhibitor; HIV-1): 1700 ± 300 nM

CC(C)C[C@@H]1NC(=O)[C@H](Cc2c[nH]c3ccccc23)NC(=O)[C@H](Cc2ccc(O)cc2)NC(=O)[C@H](CCCNC(=N)N)NC(=O)[C@@H](NC(=O)[C@@H](N)CCC(=O)O)CSSC[C@@H]2NC(=O)[C@@H]3CSSC[C@@H](C(=O)N[C@H](C(=O)N[C@@H](Cc4c[nH]c5ccccc45)C(=O)N[C@@H](CC(=O)O)C(=O)NCC(=O)N[C@H](C(=O)N[C@@H](Cc4ccccc4)C(=O)N[C@@H](CO)C(=O)O)[C@@H](C)O)C(C)C)NC(=O)[C@H](Cc4c[nH]c5ccccc45)NC(=O)CNC(=O)[C@H](Cc4c[nH]cn4)NC(=O)[C@H](CCCNC(=N)N)NC(=O)[C@H](CCCNC(=N)N)NC(=O)[C@H](CO)NC(=O)[C@H](CSSC[C@H](NC(=O)CNC(=O)CNC1=O)C(=O)N[C@@H](CO)C(=O)N[C@@H](C)C(=O)NCC(=O)N[C@@H](CCC(N)=O)C(=O)N[C@@H]([C@@H](C)O)C(=O)N3)NC(=O)[C@H](C(C)C)NC(=O)[C@H](CC(C)C)NC(=O)[C@H](Cc1c[nH]cn1)NC(=O)[C@H](CCCCN)NC2=O
IC50 (CACNA1I (Homo sapiens, UniProt Q9P0X4); inhibitor, cell-based): 26 nM

CC(C)C[C@H](NC(=O)[C@H](CCCCN)NC(=O)[C@H](CC(C)C)NC(=O)[C@]1(C)CCCC=CCCC[C@](C)(N)C(=O)N[C@@H](C)C(=O)N[C@@H](Cc2ccc(O)cc2)C(=O)N[C@@H](Cc2ccccc2)C(=O)N1)C(=O)N[C@@H](C)C(=O)NCC(=O)N[C@@H](CCCNC(=N)N)C(=O)N[C@@H](Cc1c[nH]c2ccccc12)C(N)=O
IC50 (gag-pol integrase; integrase strand transfer, inhibitor): 19000 ± 10000 nM

CC[C@H](C)[C@H](NC(=O)[C@H](C)NC(=O)[C@H](CO)NC(=O)[C@H](CC(C)C)NC(=O)[C@H](Cc1ccc(O)cc1)NC(=O)[C@@H](NC(=O)[C@H](CC(=O)O)NC(=O)[C@H](CO)NC(=O)[C@H](CCC(N)=O)NC(=O)[C@H](C)NC(=O)[C@H](CC(C)C)NC(=O)[C@H](Cc1c[nH]cn1)NC(=O)[C@H](CCC(N)=O)NC(=O)[C@H](CC(C)C)NC(=O)[C@H](C)NC(=O)[C@H](CC(=O)O)NC(=O)[C@H](CO)NC(=O)[C@H](CC(C)C)NC(=O)[C@H](CO)NC(=O)[C@H](CCCCN)NC(=O)[C@H](CC(N)=O)NC(=O)[C@@H](NC(=O)[C@H](C)NC(=O)[C@H](C)NC(=O)[C@H](CC(C)C)NC(=O)[C@H](CC(N)=O)NC(=O)[C@H](CCC(N)=O)NC(=O)[C@H](CO)NC(=O)[C@@H](NC(=O)[C@H](CC(=O)O)NC(=O)[C@@H](NC(=O)[C@@H]1CCCN1C(=O)[C@H](CC(=O)O)NC(=O)[C@@H](NC(=O)[C@H](CO)NC(=O)[C@H](CC(C)C)NC(=O)[C@@H](NC(=O)[C@H](CCC(N)=O)NC(=O)[C@H](CO)NC(=O)[C@H](CO)NC(=O)[C@H](CCC(=O)O)NC(=O)[C@H](CC(C)C)NC(=O)[C@@H](N)CCCCN)[C@@H](C)CC)[C@@H](C)CC)C(C)C)[C@@H](C)CC)C(C)C)[C@@H](C)O)C(=O)O
IC50 (F fusion protein; cell-cell fusion, inhibitor, luciferase reporter; Vero plus BSR-T7 cells; 6 h, 37 °C, with: SV5 F and HN): 83 ± 11 nM

CC[C@H](C)[C@H](NC(=O)[C@H](CCCNC(=N)N)NC(=O)[C@H](Cc1ccccc1)NC(=O)[C@H](Cc1c[nH]cn1)NC(=O)[C@@H](NC(=O)[C@H](Cc1ccccc1)NC(=O)[C@H](CC(C)C)NC(=O)[C@H](CC(C)C)NC(=O)[C@H](CCC(N)=O)NC(=O)[C@H](CCC(N)=O)NC(=O)[C@H](CC(C)C)NC(=O)[C@@H]1CCCC=CCCC[C@H](NC(=O)[C@H](CCC(=O)O)NC(C)=O)C(=O)N[C@@H]([C@@H](C)CC)C(=O)N[C@@H]([C@@H](C)CC)C(=O)N[C@@H](CCCNC(=N)N)C(=O)N1)[C@@H](C)CC)C(=O)NCC(N)=O
IC50 (gag-pol integrase; 3′-end processing, inhibitor; HIV-1): 2500 ± 400 nM

CC[C@H](C)[C@H](NC(=O)[C@H](C)NC(=O)[C@H](CO)NC(=O)[C@H](CC(C)C)NC(=O)[C@H](Cc1ccc(O)cc1)NC(=O)[C@@H](NC(=O)[C@H](CC(=O)O)NC(=O)[C@H](CO)NC(=O)[C@H](CCC(N)=O)NC(=O)[C@H](C)NC(=O)[C@H](CC(C)C)NC(=O)[C@H](Cc1c[nH]cn1)NC(=O)[C@H](CCC(N)=O)NC(=O)[C@H](CC(C)C)NC(=O)[C@H](C)NC(=O)[C@H](CC(=O)O)NC(=O)[C@H](CO)NC(=O)[C@H](CC(C)C)NC(=O)[C@H](CO)NC(=O)[C@H](CCCCN)NC(=O)[C@H](CC(N)=O)NC(=O)[C@@H](NC(=O)[C@H](C)NC(=O)[C@H](C)NC(=O)[C@H](CC(C)C)NC(=O)[C@H](CC(N)=O)NC(=O)[C@H](CCC(N)=O)NC(=O)[C@H](CO)NC(=O)[C@@H](NC(=O)[C@H](CC(=O)O)NC(=O)[C@H](Cc1ccccc1)NC(=O)[C@@H]1CCCN1C(=O)[C@H](CC(=O)O)NC(=O)[C@@H](NC(=O)[C@H](CO)NC(=O)[C@H](CC(C)C)NC(=O)[C@@H](NC(=O)[C@H](CCC(N)=O)NC(=O)[C@H](CO)NC(=O)[C@H](CO)NC(=O)[C@H](CCC(=O)O)NC(=O)[C@H](CC(C)C)NC(=O)[C@@H](N)CCCCN)[C@@H](C)CC)[C@@H](C)CC)[C@@H](C)CC)C(C)C)[C@@H](C)O)C(=O)O
IC50 (F fusion protein; cell-cell fusion, inhibitor, luciferase reporter; Vero plus BSR-T7 cells; 6 h, 37 °C, with: SV5 F and HN): 100 ± 12 nM

NC(=O)[C@H](CO)NC(=O)[C@@H]1CCCN1C(=O)[C@H](Cc1ccc(O)cc1)NC(=O)CNC(=O)[C@H](Cc1ccccc1)NC(=O)[C@@H](CCCN=C=S)NC(=O)[C@@H](N)Cc1ccc(O)cc1
IC50 (Oprd1 (Mus musculus, UniProt P32300); radioligand binding; CHO cells; with: 0.15 nM [3H]DPDPE): 23.8 ± 2.1 nM

A few entries again:
NC(=O)[C@H](CO)NC(=O)[C@@H]1CCCN1C(=O)[C@H](Cc1ccc(O)cc1)NC(=O)CNC(=O)[C@H](Cc1ccccc1)NC(=O)[C@@H](CCCN=C=S)NC(=O)[C@@H](N)Cc1ccc(O)cc1
IC50 (Oprd1 (Mus musculus, UniProt P32300); radioligand binding; CHO cells; with: 0.15 nM [3H]DPDPE): 23.8 ± 2.1 nM
